Measurements of several laboratories.
Parts stem from different laboratories: compare values within a part only.

Study 1
Target: Interferon regulatory factor 7, full length, phosphomimetic (IRF7, Homo sapiens, UniProt Q92985, residues 1-503, S471D/S472D/S475D/S476D/S477D/S483D/S484D/S487D)
Method: protein-binding microarray
Form: double-stranded DNA, one strand shown
Matrix: in vitro
Concentration: 2200 nM top
Setting: 60-bp whole probe
Added: salmon DNA 0.4 mg/ml
Reference: random background probes
Direction: higher = stronger binding
Constant ends, left off below: GCCTAGCAC … GTCTTGATTCGCTTGACGCTGCTG
Residues (chain): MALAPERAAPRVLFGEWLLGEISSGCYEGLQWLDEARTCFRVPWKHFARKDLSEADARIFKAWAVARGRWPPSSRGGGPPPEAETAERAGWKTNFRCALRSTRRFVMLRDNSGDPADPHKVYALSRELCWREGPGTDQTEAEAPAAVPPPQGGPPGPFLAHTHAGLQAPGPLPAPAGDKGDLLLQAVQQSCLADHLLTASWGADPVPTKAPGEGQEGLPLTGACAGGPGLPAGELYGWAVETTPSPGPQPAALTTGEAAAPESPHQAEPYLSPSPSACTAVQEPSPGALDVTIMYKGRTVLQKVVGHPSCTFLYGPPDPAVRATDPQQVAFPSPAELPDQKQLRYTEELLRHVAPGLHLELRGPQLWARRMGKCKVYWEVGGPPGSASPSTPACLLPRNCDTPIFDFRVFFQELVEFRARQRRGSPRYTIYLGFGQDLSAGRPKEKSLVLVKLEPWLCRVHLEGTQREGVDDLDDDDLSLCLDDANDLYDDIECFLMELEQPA
`TTTCTCTCATTATGTGGGTTGTGCTAG` — result for “fitted relative affinity”: 2.12 z-score.
For `TCAATTATATCTGTGTTACTGTGCTAG`, “fitted relative affinity” read 0.839 z-score.
For `ATGCCTTTCGTCAAGAAGACGTGCTAG`, “fitted relative affinity” read 1 z-score.
`GACGGTTTCGACCATCGGGACGTGCTA` — result for “fitted relative affinity”: 2.63 z-score.
For `GACCGTTTCCTACTGCTGACGTGCTAG`, “fitted relative affinity” read 2.45 z-score.
Under “fitted relative affinity”, `GACGATATCTGGTATCGAGACGTGCTA` is recorded as 0.398 z-score.
For `CTAGGTATCCTTCTCCTTTAGTGCTAG`, “fitted relative affinity” read 1.07 z-score.
Under “fitted relative affinity”, `CTATCTCTGTTTTTGCTTTCGTGCTAG` is recorded as 4.34 z-score.
Under “fitted relative affinity”, `GACGGTTTCGGGACAGGGGACGTGCTA` is recorded as 4.37 z-score.
Under “fitted relative affinity”, `GACGGTTTCGACTTTCGTGACGTGCTA` is recorded as 7.12 z-score.
Under “fitted relative affinity”, `GACGGTTTCCTGATCCTGACGTGCTAG` is recorded as 2.13 z-score.
`TCATCTTTCACTGCTGCACTGTGCTAG`: “fitted relative affinity” 2.11 z-score.
For `ACAAGTTTTTATTTTCTGAAGTGCTAG`, “fitted relative affinity” read 1.51 z-score.
`GACGGTATCCTCCTGCTGACGTGCTAG`: “fitted relative affinity” 0.889 z-score.
For `TTAGGACTACTTATCCTTTAGTGCTAG`, “fitted relative affinity” read 0.278 z-score.
For `TTTTTTTTCATCATTGCCTGGTGCTAG`, “fitted relative affinity” read 2.46 z-score.
For `GAACCTTGGCCTCTAGGTTTGTGCTAG`, “fitted relative affinity” read 0.458 z-score.

Study 2
Target: Histone acetyltransferase KAT6A, both winged helices, GST fusion (KAT6A, Homo sapiens, UniProt Q92794, residues 1-181)
Method: protein binding microarray
Form: double-stranded DNA, one strand shown
Matrix: in vitro
Concentration: not given
Setting: 8-mer, flanks averaged, mean of 2 arrays, mostly near background
Reference: not given
Direction: higher = stronger binding
Target sequence (chain): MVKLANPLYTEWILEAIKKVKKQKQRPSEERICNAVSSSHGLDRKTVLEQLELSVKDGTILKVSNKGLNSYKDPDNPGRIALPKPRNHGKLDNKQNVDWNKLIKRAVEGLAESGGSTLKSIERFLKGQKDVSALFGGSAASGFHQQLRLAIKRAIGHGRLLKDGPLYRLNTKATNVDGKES
For `AGAGGTTA`, the E-score was -0.0698.
`GGATCCAC` has an E-score of 0.0642.
`CGAGCGGA` has an E-score of 0.246.
The E-score of `ACGTGGAG` is reported as -0.226.
`GTATTAAA` gave an E-score of -0.0339.
`ACCGAACC` has an E-score of -0.0285.
For `AGTCTGCA`, the E-score was -0.109.
With `GCTGTTAC` the E-score was 0.163.
With `GAGATTAA` the E-score was -0.0175.
With `CAGTTAAC` the E-score was 0.22.
The E-score of `CCATAGTA` is reported as -0.157.
With `CAGAGCCA` the E-score was -0.224.
`ACTTATGC` gave an E-score of -0.12.
For `CTCTTGAC`, the E-score was -0.141.
`AAGCGGCC` gave an E-score of 0.241.
For `AATCTCAC`, the E-score was -0.0326.
`ACTGGGAG` has an E-score of -0.0725.

Study 3
Target: POU domain, class 5, transcription factor 1, POU domain (Pou5f1, Mus musculus, UniProt P20263, residues 131-289)
UniProt P20263, sequence (131-289, looked up): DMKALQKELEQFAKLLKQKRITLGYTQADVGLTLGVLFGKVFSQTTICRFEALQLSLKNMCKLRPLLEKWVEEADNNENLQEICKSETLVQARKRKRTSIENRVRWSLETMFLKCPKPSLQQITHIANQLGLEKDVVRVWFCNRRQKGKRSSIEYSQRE
Method: Spec-seq
Form: double-stranded DNA, one strand shown
Matrix: in vitro
Concentration: not given
Setting: whole probe, mean of replicates
Reference: not given
Direction: lower = stronger binding
Constant ends, left off below: GAGTCGTCTCGTCAGCAC … CCGTAGAGCACTCAGGTC
For `ATTGGGAT`, “relative binding energy” read 0.631 ln ratio.
Under “relative binding energy”, `ATGGGGAT` is recorded as 0.566 ln ratio.
Under “relative binding energy”, `ATTACTAT` is recorded as 0.214 ln ratio.
For `ATGCGCTT`, “relative binding energy” read 0.617 ln ratio.
`ATGCAGCT`: “relative binding energy” 0.305 ln ratio.
`ATGCGTGT`: “relative binding energy” 0.371 ln ratio.
`GACCTAAT`: “relative binding energy” 0.808 ln ratio.
`ATAAGGAT`: “relative binding energy” 0.567 ln ratio.
Under “relative binding energy”, `ATCCTAAT` is recorded as 0.391 ln ratio.
`ATGCATAC`: “relative binding energy” -1.29 ln ratio.
`CCAATAAT` — result for “relative binding energy”: 0.449 ln ratio.
Under “relative binding energy”, `GGTGTAAT` is recorded as 0.842 ln ratio.
`ATGATTAT`: “relative binding energy” -0.4 ln ratio.
`ATGCATCG`: “relative binding energy” -0.345 ln ratio.
For `ATGCTACT`, “relative binding energy” read 0.407 ln ratio.
`CCCTTAAT` — result for “relative binding energy”: 0.674 ln ratio.
Under “relative binding energy”, `ATGCGAGC` is recorded as 0.491 ln ratio.
`ATATCCAT`: “relative binding energy” -0.717 ln ratio.
`CCATTAAT` — result for “relative binding energy”: 0.0888 ln ratio.
For `GGGATAAT`, “relative binding energy” read 0.638 ln ratio.
`ATGCCGGG` — result for “relative binding energy”: 0.828 ln ratio.

Study 4
Target: RING finger protein unkempt homolog, zinc fingers 1-6, GST-SBP tag (UNK, Homo sapiens, UniProt Q9C0B0, residues 30-357)
UniProt Q9C0B0, sequence (30-357, looked up): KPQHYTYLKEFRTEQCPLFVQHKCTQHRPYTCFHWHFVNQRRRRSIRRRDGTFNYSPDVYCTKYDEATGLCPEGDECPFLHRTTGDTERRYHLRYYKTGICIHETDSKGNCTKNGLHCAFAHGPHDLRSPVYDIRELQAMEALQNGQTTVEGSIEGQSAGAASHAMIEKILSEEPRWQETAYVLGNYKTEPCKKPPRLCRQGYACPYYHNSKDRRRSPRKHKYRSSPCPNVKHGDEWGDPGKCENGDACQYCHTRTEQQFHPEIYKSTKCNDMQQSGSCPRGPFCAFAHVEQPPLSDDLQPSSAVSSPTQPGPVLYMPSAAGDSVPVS
Method: RNA Bind-n-Seq
Form: RNA
Matrix: in vitro
Concentration: not given
Setting: RNA with constant flanks, human and mouse sites, ends assumed
Reference: input RNA pool
Direction: higher = stronger binding
The bound/input enrichment of `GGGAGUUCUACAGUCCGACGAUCACGGUCCCUCCCUGUCUCCUCACCCUGCUGCCAUGGGAGGCCACCGAGGCUCGUUCACCACUGUAUGUCCAGGAAAAACACCCUCCUCCCCUGCCCUAUGGCUUGCAAAGCCAUUACUGGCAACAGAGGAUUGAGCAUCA` is reported as 0.128 ratio.
`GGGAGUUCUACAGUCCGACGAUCCUCUGAGUUUGAAGGGACAGCUAUUUUUAUUGAUUAUCUUUAAGUCUCUCUACCAUGGAGAAGAGCAGGAAGGGAUACACUCUCCAGUGCAUUUUCAUGUUUUGAAUCUGAUUAGUGGAUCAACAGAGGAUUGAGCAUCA` has a bound/input enrichment of 0.27 ratio.
The bound/input enrichment of `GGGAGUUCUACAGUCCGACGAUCUUACACAUUUGGUGAGCAGGGCAGCAUUUCCUUCUCCCACUGCUGCUGAGAUGGCAGAAAUUAGUCGAAUUCAGUACGAAAUGGAAUAUACUGAAGGCAUUAGUCAGCGAAUGAGGGUCCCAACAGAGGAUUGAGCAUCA` is reported as 6.36 ratio.
For `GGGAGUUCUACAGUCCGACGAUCAAUGGUGAAUCAGGAAAAGAAAUGGAUGACGAUAAAGAUGCAAAUAAAUCUGAAAUAAGCUUAGUGUUUGAGAUUGCGCUGAAGAGAAAUAUGCCUGUCAGUUUUGAGGUUAUUAAAGAACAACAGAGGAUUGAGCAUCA`, the bound/input enrichment was 0.512 ratio.
With `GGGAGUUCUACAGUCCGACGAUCGCCUGUGCCCCCAACAAAGAUGUGGCAGACUGCCUGGCCUUGAUCCUUUCCACCAUGAAGCCUUUCCCACCCAAGGACGCCGUCAGUCCUUUCAGCUUCAGCCUGCUCAAGAACUGCAGCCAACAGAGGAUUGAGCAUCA` the bound/input enrichment was 0.286 ratio.
`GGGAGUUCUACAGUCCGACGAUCAUGGAGCCACCUGCAGCAUUGAGGAGGAGAAGGAAUCUGAAGCCAGCACCCCAACUGCUACAGAGGUGGAGGCCCUUGGGGGAGAGCUGAGGGCCCUGUGUCAGGGGCACAGCGGGCCCGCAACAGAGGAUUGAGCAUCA` has a bound/input enrichment of 0.207 ratio.
With `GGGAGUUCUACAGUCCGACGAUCCUGCAUUUUGUCCACAUGAGAGGAUUGCCUUUCCAAGCCAAUGCCCAAGACAUUAUAAAUUUCUUUGCUCCCCUGAAGCCUGUGAGAAUCACCAUGGAAUACAGCUCCAGUGGGAAGGCCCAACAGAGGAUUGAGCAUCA` the bound/input enrichment was 0.299 ratio.
With `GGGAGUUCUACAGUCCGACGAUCCUCUUCUUGAAUUCUACCGCAGGGACAAGUGGAGGAGCUUAUGAUCAUAGCUAUGUAGAGCUCUUUUUGAAUUCUACAGCAGGGGCAAGUGGUGGUGCUUACGGUAGCCAGAUGAUGGGACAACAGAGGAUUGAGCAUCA` the bound/input enrichment was 0.481 ratio.

Excerpt of the above (study 3):
For `ATGCTACT`, “relative binding energy” read 0.407 ln ratio.
Under “relative binding energy”, `ATTACTAT` is recorded as 0.214 ln ratio.
Under “relative binding energy”, `ATGGGGAT` is recorded as 0.566 ln ratio.
`ATATCCAT`: “relative binding energy” -0.717 ln ratio.
`CCAATAAT` — result for “relative binding energy”: 0.449 ln ratio.
